Published values from different studies.
Each line is one published result; not all experiments were run side by side.

Structure (SMILES) | assay | system | setting | endpoint | value
C[C@@H]1OC(=O)NN=C1c1ccc(-c2ccc(F)cc2)c(C(F)(F)F)c1 | phase I trial, refers to: abdominal distension all grades | human patients | 10 mg loading then 0.5 mg daily | patients with adverse event | 0%
COc1ccc(-c2c(-c3ccc(C#N)c(F)c3)nc(N3CCC(N)CC3)n(C)c2=O)cc1F | refers to: cerebrovascular accident | human patients | oral, 60 mg, dose expansion | patients with serious TEAE | 0%
Cn1ncc(-c2nc(N[C@H]3CC[C@H](N)CC3)ncc2Cl)c1CC1CC1 | refers to: treatment-related Fatigue | human patients phase I | dose not given | patients with adverse events | 12.9%
CN(C)C(=O)c1cc2cnc(Nc3ccc(N4CCNCC4)cn3)nc2n1C1CCCC1 | refers to: Reproductive toxicity, AESI | human, HR+/HER2− advanced breast cancer | oral, dose not given, grade 3, CTCAE v4.03 | patients with adverse event | 0%
CCN(CCO)CCCC(C)Nc1ccnc2cc(Cl)ccc12 (stereo not drawn) | – | human, newly diagnosed glioblastoma | oral, 200 mg/dose, dry skin grade 1, with RT and TMZ | patients with adverse event | 33%
O=C(c1ccc(F)c(F)c1Nc1ccc(I)cc1F)N1CC(O)([C@@H]2CCCCN2)C1 | – | human patients | oral, dose not given, dose escalation, tablet | patients with treatment-related SAE | 6%
C[C@]1(O)C[C@@](N)(c2ccc(-c3nc4n(c3-c3ccccc3)COc3ccncc3-4)cc2)C1 | – | human, advanced or metastatic solid tumours | intermittent, dose escalation total, any grade | patients with Pruritus TEAE | 57.1%
COc1ncnn2ccc(-c3cnc4nc(C)n(Cc5nnc([C@@H](C)F)o5)c4c3)c12 | – | human | oral, dose not given, grade 2 | patients with diarrhea | 42.9%
Cn1cncc1-c1c(F)cncc1NC(=O)c1c(N)nn2cc(F)cnc12 | – | human patients | oral, 220 mg once daily, 2 weeks on 1 week off | patients grade ≥3 Hyponatremia | 0%
NC(=O)[C@H]1CCN(c2ncnc(N)c2F)C[C@@H]1N1CCC[C@@H](Nc2cc(Cl)cc(C(F)(F)F)c2)C1=O | – | human patients | oral, dose not given, grade ≥3 | patients with decreased platelets | 8%
Cc1cn([C@H]2O[C@@H](CO[P@@](=O)(N[C@@H](C)C(=O)OC(C)C)Oc3ccccc3)[C@H](O)[C@H]2F)c(=O)[nH]c1=O | refers to: grade 3 | human | 50 mg | patients with ALT/AST elevation | 0%
CCN(Cc1nc2c(N)nc3cc(-c4cc[nH]n4)ccc3c2[nH]1)C(C)=O | grade 1-2 neutrophilia | human | intratumoral, dose not given | patients with adverse event | 38%
COc1c(C)cnc(Cn2cc(C#CCCOP(=O)(O)O)c3c(Cl)nc(N)nc32)c1C | refers to: diarrhea | human, advanced solid tumours | concentration not given, at least possibly drug-related | patients with adverse event | 44%
C=CC(=O)Nc1cc(Nc2nccc(Nc3cc(Cl)c(F)cc3C(C)(C)O)n2)c(OC)cc1N1CC[C@@H](N(C)C)C1 | – | human patients | oral, 100 mg, treatment-emergent adverse events | patients with rash | 22.2%
O=C1Nc2cc3[nH]nc(-c4ccncc4)c3cc2CN1Cc1ccccc1 | CTCAE v4.03 | human, relapsed or refractory advanced solid tumours | intravenous, 9.6 mg/kg, pooled schedules | patients with QTc prolongation | 44%
O=C([O-])CN1CCN(CC(=O)[O-])CCN(CC(=O)NCC2CCC(C(=O)N[C@@H](Cc3ccc4ccccc4c3)C(=O)NCCCC[C@H](NC(=O)N[C@@H](CCC(=O)O)C(=O)O)C(=O)O)CC2)CCN(CC(=O)[O-])CC1.[177Lu+3] (stereo partly drawn) | 99mTc-DTPA plasma clearance | human | concentration not given | patients with GFR increase | 26%
CCN1[C@@H](C(=O)NC23CCC(C(=O)O)(CC2)CC3)[C@H](c2cccc(Cl)c2F)[C@]2(C(=O)Nc3cc(Cl)ccc32)C12CCCCC2 | refers to: any-grade treatment-related nausea | human, advanced solid tumours | oral, dose not given, all sample A patients | patients with adverse event | 14.3%
CCS(=O)(=O)Nc1ccc(Oc2ccc(F)cc2F)c(-c2cn(C)c(=O)c3[nH]ccc23)c1 | refers to: Cellulitis | human, relapsed/refractory AML | oral, dose not given, trial, added: alone or with venetoclax | patients with serious adverse event | 5%
